Measured values from different studies.
Each numbered part is a random draw from the data of one study; scales do not carry over between parts. Positions count from the first letter of the parent shown.

Block 1
Target: Sox, HMG box (Pigoraptor chileana)
Method: Spec-seq
Molecule type: double-stranded DNA, one strand shown
Medium: in vitro
Concentration: not given
Setting: whole probe, mean of replicates
Baseline: not given
Direction: lower = stronger binding
All sequences stand within: GAGTCGTCTCGTCAGCAC … CCGTAGAGCACTCAGGTC
Construct (chain): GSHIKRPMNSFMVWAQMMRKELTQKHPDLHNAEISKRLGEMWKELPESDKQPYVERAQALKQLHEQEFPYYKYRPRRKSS
Oligonucleotide	relative binding energy [ln ratio]
CATGACT	0.713
CATTACA	-0.103
AGTGGTT	-0.791
CATCTCC	1.01
CCGCGTT	1.32
GATGGTT	0.953
GAGCGTT	1.25
CATCAAA	0.0595

Block 2
Target: Probable WRKY transcription factor 33, C-terminal DNA-binding domain (WRKY33, Arabidopsis thaliana, UniProt Q8S8P5, residues 346-449)
Method: DNA-protein interaction ELISA
Molecule type: double-stranded DNA, one strand shown
Medium: in vitro, bacterial lysate
Concentration: not given
Setting: whole dsDNA probe, crude lysate protein
Baseline: highest signal in screen
Direction: higher = stronger binding
Residues (chain): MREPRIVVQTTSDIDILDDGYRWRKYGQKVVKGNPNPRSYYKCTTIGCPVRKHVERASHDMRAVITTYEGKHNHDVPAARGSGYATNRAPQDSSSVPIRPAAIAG
Oligonucleotide	relative absorbance
AAAAAACCCTACATCGCATATAAGAGAAAA	32.1 % of maximum
AAAAAAGGAAGTACTGACGATCTGGAAAAA	40.4 % of maximum
AAAAAAAGTGGCCGCTAGTCAACTCAAAAA	99.4 % of maximum
AAAAAAATCTCACTCCTGGTCCCCATAAAA	34.9 % of maximum
AAAAAACCCGGTTGGAGAAAATAATTAAAA	41.3 % of maximum
AAAAAATCCTGTTTGCGTTTGATTTTAAAA	47.7 % of maximum
AAAAAAGGTAATGCCGGTCCCAGTATAAAA	52.8 % of maximum
AAAAAACGCCTTATGCCTCCCGCTCGAAAA	32.6 % of maximum

Block 3
Target: CRIPT, C-terminal peptide
Method: DHFR complementation, deep sequencing
Medium: yeast
Setting: single substitutions, model-inferred values
Baseline: wild type
Direction: higher = weaker binding
Starting sequence: ERBIN, PDZ domain 1 (human); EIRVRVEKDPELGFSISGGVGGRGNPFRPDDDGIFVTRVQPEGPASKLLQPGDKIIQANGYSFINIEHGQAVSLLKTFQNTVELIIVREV; partner TKNYKQTSV
Change	binding free energy change [kcal/mol]
G21N	0.072
V90I	-0.0369
S15C	0.353
R3L	-0.2
D9K	-0.314
G19E	1.19
E7G	-0.0366
F27V	0.784

Further values, each from its own experiment
Starting sequence: viral docking peptide; KGVKRKLFAEDSS; partner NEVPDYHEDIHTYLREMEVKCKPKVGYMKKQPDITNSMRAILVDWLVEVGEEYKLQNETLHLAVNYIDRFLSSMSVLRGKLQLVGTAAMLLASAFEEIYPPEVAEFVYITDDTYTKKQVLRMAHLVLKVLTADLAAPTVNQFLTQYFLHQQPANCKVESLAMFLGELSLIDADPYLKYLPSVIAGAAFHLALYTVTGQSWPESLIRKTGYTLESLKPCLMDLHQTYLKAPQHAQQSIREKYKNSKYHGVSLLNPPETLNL
Change	target	test	test system	conditions	scale	measurement	value
V3N	CCNA2, cyclin fold, Cln2 fusion (human)	yeast growth competition, sequencing	yeast	strong parent motif	baseline: not given, higher = stronger binding	normalised enrichment score	0.668

A few entries again (block 1):
Oligonucleotide	relative binding energy [ln ratio]
GAGCGTT	1.25
CATCAAA	0.0595
